Measured values of several laboratories.
Every numbered part comes from another study and shows a few of its results, in no order.

Study 1
Target: Histone acetyltransferase KAT6A, winged helix 2, GST fusion (KAT6A, Homo sapiens, UniProt Q92794, residues 85-181)
Technique: protein binding microarray
Molecule type: double-stranded DNA, one strand shown
Matrix: in vitro
Tested at: not given
Setting: 8-mer, flanks averaged, mean of 2 arrays, mostly near background
Reference: not given
Direction: higher = stronger binding
Residues (chain): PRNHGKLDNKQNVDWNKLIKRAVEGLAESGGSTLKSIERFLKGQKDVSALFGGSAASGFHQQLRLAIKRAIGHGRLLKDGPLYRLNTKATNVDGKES
With `CTTACCCC` the E-score was -0.223.
`CGCCAAAA` gave an E-score of 0.157.
`CTCCTCGC` has an E-score of 0.00899.
The E-score of `GCTGCAAC` is reported as -0.042.

Study 2
Target: Interferon regulatory factor 5, full length, phosphomimetic (IRF5, Homo sapiens, UniProt Q13568-2, residues 1-514, S451D/S453D/S456D/S462D)
Technique: protein-binding microarray
Molecule type: double-stranded DNA, one strand shown
Matrix: in vitro
Tested at: 940 nM top
Setting: 60-bp whole probe
With: salmon DNA 0.4 mg/ml
Reference: random background probes
Direction: higher = stronger binding
For `GCCTAGCACGACAGTATCGGTATCGGGACGTGCTAGGTCTTGATTCGCTTGACGCTGCTG`, “fitted relative affinity” read 8.45 z-score.
`GCCTAGCACGACGAACTGGGGTCTGGAGACGTGCTAGTCTTGATTCGCTTGACGCTGCTG`: “fitted relative affinity” 0.0167 z-score.
`GCCTAGCACGACGGTTTCGGGGATCGGGACGTGCTAGTCTTGATTCGCTTGACGCTGCTG` — result for “fitted relative affinity”: 7.07 z-score.
`GCCTAGCACGACGATTTCAGTATCGATACGTGCTAGGTCTTGATTCGCTTGACGCTGCTG` — result for “fitted relative affinity”: 6.3 z-score.

Study 3
Target: Sal-like protein 4, full length isoform A (SALL4, Homo sapiens, UniProt Q9UJQ4, residues 1-1053)
UniProt Q9UJQ4, sequence (whole entry, looked up): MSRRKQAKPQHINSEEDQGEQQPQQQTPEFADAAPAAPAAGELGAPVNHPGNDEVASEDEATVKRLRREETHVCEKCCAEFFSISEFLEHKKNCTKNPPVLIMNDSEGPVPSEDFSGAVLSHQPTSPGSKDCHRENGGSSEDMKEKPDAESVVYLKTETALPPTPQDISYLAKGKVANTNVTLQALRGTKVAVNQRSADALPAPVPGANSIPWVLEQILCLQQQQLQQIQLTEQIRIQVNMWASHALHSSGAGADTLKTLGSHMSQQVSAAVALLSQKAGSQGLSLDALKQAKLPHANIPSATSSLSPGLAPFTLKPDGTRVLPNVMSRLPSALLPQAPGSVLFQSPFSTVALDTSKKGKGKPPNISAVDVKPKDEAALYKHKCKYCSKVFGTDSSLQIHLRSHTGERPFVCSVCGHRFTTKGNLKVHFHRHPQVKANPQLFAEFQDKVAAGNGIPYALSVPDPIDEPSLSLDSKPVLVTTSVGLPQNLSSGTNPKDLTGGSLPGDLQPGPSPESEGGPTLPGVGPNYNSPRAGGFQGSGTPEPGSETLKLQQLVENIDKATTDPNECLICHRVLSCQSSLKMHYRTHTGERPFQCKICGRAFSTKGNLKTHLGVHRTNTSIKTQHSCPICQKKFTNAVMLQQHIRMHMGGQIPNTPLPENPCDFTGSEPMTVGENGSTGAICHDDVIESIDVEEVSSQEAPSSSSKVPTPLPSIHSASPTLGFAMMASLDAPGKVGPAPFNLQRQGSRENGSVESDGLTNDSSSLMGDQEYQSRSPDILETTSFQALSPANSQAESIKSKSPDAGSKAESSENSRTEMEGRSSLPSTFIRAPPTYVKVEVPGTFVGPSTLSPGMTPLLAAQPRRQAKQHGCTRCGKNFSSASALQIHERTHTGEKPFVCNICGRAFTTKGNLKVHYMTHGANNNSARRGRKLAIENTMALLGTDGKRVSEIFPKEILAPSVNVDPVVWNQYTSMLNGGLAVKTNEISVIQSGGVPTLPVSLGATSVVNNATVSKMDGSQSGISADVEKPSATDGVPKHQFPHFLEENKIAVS
Technique: universal PBM
Molecule type: double-stranded DNA, one strand shown
Matrix: in vitro
Tested at: 600 nM
Setting: 8-mer, flanks averaged, mean of replicates
Direction: higher = stronger binding
With `CAATGGCC` the E-score was -0.235.
With `CGCGTCAG` the E-score was -0.261.
With `TAAGCCCA` the E-score was 0.018.
`GCACGCCC` has an E-score of -0.319.
With `CTGGTGAA` the E-score was -0.103.

Further values, each from its own experiment
For `PhoQ, residues 284 288 289 292 302 303 AEGLLW`, the fold induction was 1.04 (PhoP, residues 12 14 15 18 19 DLLYY (Escherichia coli, UniProt P23836); Sort-seq, item: YFP reporter; E. coli; PhoQ-PhoP variant library, with: 10 µM Mg2+; reference: high Mg2+ state, higher = stronger signaling).

Some of these lines once more (study 3):
With `CAATGGCC` the E-score was -0.235.
`GCACGCCC` has an E-score of -0.319.
